Measurements gathered from unrelated publications.
“And” joins repeats or separate records; there may be more than shown. ± gives the spread as reported.
IDE: Insulin-degrading enzyme (IDE, Homo sapiens, UniProt P14735)
RET: Proto-oncogene tyrosine-protein kinase receptor Ret (RET, Homo sapiens, UniProt P07949)
Chain of UniProt P07949 (whole entry, looked up): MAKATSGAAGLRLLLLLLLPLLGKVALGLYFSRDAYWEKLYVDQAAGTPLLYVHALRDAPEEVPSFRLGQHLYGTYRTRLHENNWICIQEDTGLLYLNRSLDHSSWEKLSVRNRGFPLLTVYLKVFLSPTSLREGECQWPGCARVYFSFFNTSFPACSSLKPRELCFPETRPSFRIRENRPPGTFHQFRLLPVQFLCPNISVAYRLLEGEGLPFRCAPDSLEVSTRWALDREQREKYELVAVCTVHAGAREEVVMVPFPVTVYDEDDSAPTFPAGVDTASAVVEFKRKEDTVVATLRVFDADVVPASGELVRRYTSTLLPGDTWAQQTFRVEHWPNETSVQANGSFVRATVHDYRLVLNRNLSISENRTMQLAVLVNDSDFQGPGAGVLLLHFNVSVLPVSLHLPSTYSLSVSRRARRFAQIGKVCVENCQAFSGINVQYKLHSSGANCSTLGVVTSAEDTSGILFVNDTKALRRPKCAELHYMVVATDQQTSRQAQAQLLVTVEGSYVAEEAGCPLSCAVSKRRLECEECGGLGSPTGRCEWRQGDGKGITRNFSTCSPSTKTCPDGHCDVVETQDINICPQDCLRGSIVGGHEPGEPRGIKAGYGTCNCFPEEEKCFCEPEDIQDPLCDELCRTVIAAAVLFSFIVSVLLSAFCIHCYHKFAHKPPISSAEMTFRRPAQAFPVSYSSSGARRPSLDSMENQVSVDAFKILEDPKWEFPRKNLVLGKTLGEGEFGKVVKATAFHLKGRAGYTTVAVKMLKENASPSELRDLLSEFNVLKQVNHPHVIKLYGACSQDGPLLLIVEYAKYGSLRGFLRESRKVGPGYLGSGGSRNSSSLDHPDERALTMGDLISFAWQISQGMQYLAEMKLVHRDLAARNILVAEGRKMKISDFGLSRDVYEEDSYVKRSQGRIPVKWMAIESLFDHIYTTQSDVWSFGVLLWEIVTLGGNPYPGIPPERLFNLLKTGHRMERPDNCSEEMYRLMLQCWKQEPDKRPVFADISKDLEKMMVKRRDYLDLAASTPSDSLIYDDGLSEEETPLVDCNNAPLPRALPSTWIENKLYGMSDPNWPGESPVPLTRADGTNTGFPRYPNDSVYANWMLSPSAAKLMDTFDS
MAP3K1: Mitogen-activated protein kinase kinase kinase 1 (MAP3K1, Homo sapiens, UniProt Q13233)
Chain of UniProt Q13233 (whole entry, looked up): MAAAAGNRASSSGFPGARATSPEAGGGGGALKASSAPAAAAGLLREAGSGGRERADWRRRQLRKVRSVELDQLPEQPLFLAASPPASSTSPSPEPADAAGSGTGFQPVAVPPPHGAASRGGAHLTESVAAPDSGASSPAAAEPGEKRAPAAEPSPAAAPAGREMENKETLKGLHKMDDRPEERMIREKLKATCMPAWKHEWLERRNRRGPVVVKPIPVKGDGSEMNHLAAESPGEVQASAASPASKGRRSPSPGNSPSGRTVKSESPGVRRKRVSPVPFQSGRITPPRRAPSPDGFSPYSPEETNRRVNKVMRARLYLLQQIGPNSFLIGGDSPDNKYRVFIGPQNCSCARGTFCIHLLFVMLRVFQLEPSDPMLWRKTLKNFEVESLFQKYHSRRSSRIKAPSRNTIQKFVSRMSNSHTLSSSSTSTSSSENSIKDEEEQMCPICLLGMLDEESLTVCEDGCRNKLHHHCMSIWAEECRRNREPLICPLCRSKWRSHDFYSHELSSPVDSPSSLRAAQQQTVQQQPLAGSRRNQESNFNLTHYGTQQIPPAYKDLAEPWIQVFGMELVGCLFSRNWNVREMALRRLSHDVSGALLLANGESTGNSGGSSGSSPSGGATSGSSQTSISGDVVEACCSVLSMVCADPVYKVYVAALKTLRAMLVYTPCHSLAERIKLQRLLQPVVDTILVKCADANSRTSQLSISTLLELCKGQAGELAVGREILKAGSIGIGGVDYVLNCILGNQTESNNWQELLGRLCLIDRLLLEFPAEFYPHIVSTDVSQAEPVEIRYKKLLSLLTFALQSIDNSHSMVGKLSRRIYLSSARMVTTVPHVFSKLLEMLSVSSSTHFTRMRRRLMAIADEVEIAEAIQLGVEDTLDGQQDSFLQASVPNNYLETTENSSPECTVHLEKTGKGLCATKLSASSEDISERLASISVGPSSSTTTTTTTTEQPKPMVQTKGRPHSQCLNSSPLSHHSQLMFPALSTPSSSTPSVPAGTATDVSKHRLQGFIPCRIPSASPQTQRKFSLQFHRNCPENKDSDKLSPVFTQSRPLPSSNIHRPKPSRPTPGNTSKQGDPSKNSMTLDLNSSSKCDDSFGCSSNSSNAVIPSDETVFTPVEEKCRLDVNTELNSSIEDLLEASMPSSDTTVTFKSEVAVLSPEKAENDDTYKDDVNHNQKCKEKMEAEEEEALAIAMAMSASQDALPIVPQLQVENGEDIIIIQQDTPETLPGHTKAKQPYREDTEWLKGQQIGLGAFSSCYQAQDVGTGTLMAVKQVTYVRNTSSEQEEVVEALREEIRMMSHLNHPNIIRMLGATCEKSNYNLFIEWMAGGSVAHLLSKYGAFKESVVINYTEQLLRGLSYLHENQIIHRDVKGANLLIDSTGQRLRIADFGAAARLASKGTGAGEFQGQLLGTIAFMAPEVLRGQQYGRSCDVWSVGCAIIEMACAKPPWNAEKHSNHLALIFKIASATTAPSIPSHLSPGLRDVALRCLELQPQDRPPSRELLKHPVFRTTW
HIPK1: Homeodomain-interacting protein kinase 1 (HIPK1, Homo sapiens, UniProt Q86Z02)
Chain of UniProt Q86Z02 (whole entry, looked up): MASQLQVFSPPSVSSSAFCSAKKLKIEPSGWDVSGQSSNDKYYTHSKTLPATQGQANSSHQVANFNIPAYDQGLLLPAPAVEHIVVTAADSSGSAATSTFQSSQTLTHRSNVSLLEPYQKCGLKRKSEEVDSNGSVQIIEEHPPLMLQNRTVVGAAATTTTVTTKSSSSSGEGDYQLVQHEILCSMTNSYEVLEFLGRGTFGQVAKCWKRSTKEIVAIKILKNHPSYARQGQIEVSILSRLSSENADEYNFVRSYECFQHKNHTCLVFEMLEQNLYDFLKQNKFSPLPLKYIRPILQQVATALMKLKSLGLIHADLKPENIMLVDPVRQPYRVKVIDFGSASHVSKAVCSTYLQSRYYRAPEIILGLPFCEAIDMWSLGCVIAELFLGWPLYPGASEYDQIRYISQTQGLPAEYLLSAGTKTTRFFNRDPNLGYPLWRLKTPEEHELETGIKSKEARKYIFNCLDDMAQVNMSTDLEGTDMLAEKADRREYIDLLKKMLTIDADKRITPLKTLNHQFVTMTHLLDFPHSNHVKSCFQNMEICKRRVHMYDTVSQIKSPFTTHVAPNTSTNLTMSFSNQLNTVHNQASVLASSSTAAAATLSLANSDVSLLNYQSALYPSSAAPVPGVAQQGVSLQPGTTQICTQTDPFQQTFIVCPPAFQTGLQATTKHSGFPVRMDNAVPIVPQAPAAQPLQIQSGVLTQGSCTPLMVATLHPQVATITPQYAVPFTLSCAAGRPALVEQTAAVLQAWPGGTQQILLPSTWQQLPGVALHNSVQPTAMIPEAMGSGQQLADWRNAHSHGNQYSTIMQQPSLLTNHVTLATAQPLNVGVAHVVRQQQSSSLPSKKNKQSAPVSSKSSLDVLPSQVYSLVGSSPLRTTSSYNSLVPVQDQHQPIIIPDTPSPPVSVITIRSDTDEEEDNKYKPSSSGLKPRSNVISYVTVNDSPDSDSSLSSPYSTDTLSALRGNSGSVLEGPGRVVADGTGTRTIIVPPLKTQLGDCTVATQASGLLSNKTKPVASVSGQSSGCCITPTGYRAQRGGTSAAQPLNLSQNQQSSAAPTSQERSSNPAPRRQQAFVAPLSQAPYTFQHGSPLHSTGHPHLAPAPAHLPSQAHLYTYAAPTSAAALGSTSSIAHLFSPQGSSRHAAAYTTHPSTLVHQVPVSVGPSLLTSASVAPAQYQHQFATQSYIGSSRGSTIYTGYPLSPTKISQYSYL
CSNK1D: Casein kinase I isoform delta (CSNK1D, Homo sapiens, UniProt P48730)
Chain of UniProt P51575 (whole entry, unmodified, looked up): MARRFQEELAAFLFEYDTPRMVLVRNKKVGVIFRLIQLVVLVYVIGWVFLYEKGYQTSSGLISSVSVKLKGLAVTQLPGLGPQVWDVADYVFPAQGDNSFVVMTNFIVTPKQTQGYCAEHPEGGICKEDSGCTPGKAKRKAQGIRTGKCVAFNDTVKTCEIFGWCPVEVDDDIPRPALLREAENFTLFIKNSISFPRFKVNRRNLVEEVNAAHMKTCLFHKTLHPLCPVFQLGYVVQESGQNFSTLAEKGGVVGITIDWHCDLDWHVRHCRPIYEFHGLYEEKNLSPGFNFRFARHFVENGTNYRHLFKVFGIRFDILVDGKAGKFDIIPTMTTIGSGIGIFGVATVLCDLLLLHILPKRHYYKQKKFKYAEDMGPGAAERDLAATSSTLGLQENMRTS
Chain of UniProt P28074 (whole entry, looked up): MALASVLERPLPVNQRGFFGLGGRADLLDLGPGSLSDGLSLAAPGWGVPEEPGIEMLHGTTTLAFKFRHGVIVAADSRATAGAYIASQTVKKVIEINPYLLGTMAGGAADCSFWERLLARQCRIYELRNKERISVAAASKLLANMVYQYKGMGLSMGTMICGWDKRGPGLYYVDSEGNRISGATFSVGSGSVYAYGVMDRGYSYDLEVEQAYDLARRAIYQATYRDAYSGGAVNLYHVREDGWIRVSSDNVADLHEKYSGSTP
Chain of UniProt P48730 (whole entry, looked up): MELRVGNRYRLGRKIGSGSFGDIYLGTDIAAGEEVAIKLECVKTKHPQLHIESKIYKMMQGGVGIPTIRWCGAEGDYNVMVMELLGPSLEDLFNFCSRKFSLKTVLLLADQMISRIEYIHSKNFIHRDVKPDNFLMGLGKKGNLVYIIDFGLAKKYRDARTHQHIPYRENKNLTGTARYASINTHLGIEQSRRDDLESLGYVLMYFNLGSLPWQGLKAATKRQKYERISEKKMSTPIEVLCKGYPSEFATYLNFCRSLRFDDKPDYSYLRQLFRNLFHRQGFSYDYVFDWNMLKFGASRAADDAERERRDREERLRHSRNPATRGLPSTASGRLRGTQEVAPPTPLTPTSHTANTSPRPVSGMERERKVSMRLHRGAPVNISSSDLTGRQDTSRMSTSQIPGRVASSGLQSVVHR
Chain of UniProt P29373 (whole entry, unmodified, looked up): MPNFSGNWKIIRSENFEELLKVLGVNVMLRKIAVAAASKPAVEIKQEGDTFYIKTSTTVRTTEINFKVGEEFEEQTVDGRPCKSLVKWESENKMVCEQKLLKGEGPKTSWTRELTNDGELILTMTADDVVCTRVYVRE

| SMILES | tested on | test | test system | setting | scale | measurement | result |
| --- | --- | --- | --- | --- | --- | --- | --- |
| Cc1ccccc1-c1ccc([C@H]2[C@H](CO)N3C(=O)CN(C(=O)Cc4ccccn4)C[C@@H]23)cc1 | IDE | enzyme activity, inhibitor, fluorogenic kinetic |  | with: Mca-RPPGFSAFK(Dnp)-OH substrate |  | EC50 | 4.4 µM |
| C=CC(=O)N1CCC([C@@H]2CCNc3c(C(N)=O)c(-c4ccc(Oc5ccccc5)cc4)nn32)CC1 | RET | kinase activity, inhibitor, HotSpot radiometric |  | 100 nM, with: ATP 10 µM |  | remaining activity | 103.4 ± 1% |
| NC/C(=C\F)COc1cccc(Cn2c(=S)[nH]c(=O)c3[nH]cnc32)c1 | Peroxidasin homolog (PXDN, Homo sapiens, UniProt Q92626) | Amplex UltraRed |  | 0.625 µM, mean of replicates | reference: control | remaining activity | 98.8% |
| O=C1NC(=O)/C(=C/c2ccc(-c3ccc(F)cc3O)o2)S1 | Serine/threonine-protein kinase pim-1 (PIM1, Homo sapiens, UniProt P11309) | enzyme activity |  | 10 µM |  | remaining activity | 7% |
| COc1cc(Nc2ncc3c(n2)-c2ccc(Cl)cc2C(c2c(F)cccc2OC)=NC3)ccc1C(=O)O | ABL1 T315I | kinase activity |  | 1 µM |  | remaining activity | 65% |
| O=C(NC1CCC1)c1ccc2nc(-c3cccc(NS(=O)(=O)NCCN4CCCCC4)c3)cn2c1 | Myosin light chain kinase (MYLK3, Homo sapiens, UniProt Q32MK0) | enzyme activity |  | 10 µM |  | remaining activity | 100% |
| Nc1ncnc2c1ncn2[C@@H]1O[C@H](COP(=O)(O)OP(=O)(O)OP(=O)(O)O)[C@@H](O)[C@H]1O | Sulfonylurea receptor 1, Kir6.2 (Homo sapiens, UniProt Q09428+Q14654) | inside-out patch clamp | HEK293 | concentration not given, after Ca2+ exposure 5 min | reference: control | channel reactivation | 10 to 15% |
| CC#CC(=O)N1CCC[C@H]1c1nc(-c2ccc(C(=O)Nc3ccccn3)cc2)c2c(N)nccn12 | RET | kinase activity, inhibitor, HotSpot radiometric |  | 100 nM, with: ATP 10 µM |  | remaining activity | 93.6 ± 1% |
| CC(=O)Nc1cccc(-n2c(=O)n(C3CC3)c(=O)c3c(Nc4ccc(I)cc4F)n(C)c(=O)c(C)c32)c1 | NCI-H2087 (BRAF L597V) |  |  | 50.00 nM, 72 h, unit not given | reference: DMSO | viability | 0.365 |
| Nc1ncnc2c1ncn2[C@@H]1O[C@H](COP(=O)(O)CP(=O)(O)OP(=O)(O)O)[C@@H](O)[C@H]1O | P2X purinoceptor 1 (P2RX1, Homo sapiens, UniProt P51575, K215A) | saturation binding | HEK293 | 103 nM |  | specific binding | 5000 CCPM and 5010 CCPM |
| COc1ccc(F)cc1C(=O)NCc1ccc(-c2nn([C@@H](C)C(F)(F)F)c(N)c2C(N)=O)cc1 | Protein-tyrosine kinase 6 (PTK6, Homo sapiens, UniProt Q13882) | kinase activity, inhibitor, HotSpot radiometric |  | 100 nM, with: ATP 10 µM |  | remaining activity | 42 ± 0.7% |
| CNc1ncc2c(/C=C/C(=O)N3CCC(OC)CC3)nn(Cc3cccc(C(F)(F)F)c3)c2n1 | MAP3K1 | kinase activity, inhibitor |  | 1 µM | reference: untreated control | remaining activity | 98% |
| C=CC(=O)N1CCC[C@@H](n2nc(-c3ccc(Oc4ccccc4)cc3)c3c(N)ncnc32)C1 | Fibroblast growth factor receptor 1 (FGFR1, Homo sapiens, UniProt P11362) | kinase activity, inhibitor, HotSpot radiometric |  | 100 nM, with: ATP 10 µM |  | remaining activity | 75.4 ± 1.2% |
| COc1cc(N2CCN(C)CC2)ccc1Nc1nc(N)n(C(=O)NCc2c(Cl)cccc2Cl)n1 | MAP3K1 | enzyme activity |  | 10 µM | reference: control | remaining activity | 12% |
| CC(C)C[C@H](NC(=O)[C@H](Cc1ccccc1)NC(=O)c1cnccn1)B(O)O | Proteasome component C5/PSMB5 (Homo sapiens, UniProt P20618+P28074) | enzyme activity, inhibitor |  | 1 µM, PA28αβ-activated, Tris buffer, with: Ac-WLA-AMC substrate |  | remaining activity | 1 ± 1% |
| Cn1cc(-c2ccc(-c3cncc(Cl)c3N3CCC4(CCNC4=O)CC3)cc2)cn1 | COLO 205 | gene expression, microarray, item: C1orf61 mRNA |  | concentration not given, 6 h | reference: untreated cells | log2 fold change | -2.7 |
| C=CC[C@@H]1c2ccc(OC)c(OC)c2CN2CCc3cc4c(cc3[C@H]12)OCO4 | P2X purinoceptor 7 (P2rx7, Rattus norvegicus, UniProt Q64663) | ATP-evoked current, inhibitor, whole-cell patch clamp | HEK293 transfected | 30 µM |  | remaining activity | 92.5% |
| c1cnc2ccc(Nc3nc(NC4CC4)c4nc[nH]c4n3)cc2c1 | Ribosomal protein S6 kinase beta-1 (RPS6KB1, Homo sapiens, UniProt P23443) | kinase activity, inhibitor, SelectScreen kinase profiling |  | 1 µM | reference: control | remaining activity | 74% |
| Nc1ncc2c(n1)-c1c([nH]c3ccc(-c4ccc(F)cc4)cc13)CCC2 | HIPK1 | kinase activity, inhibitor, radiometric |  | 1 µM, with: ATP at Km |  | remaining activity | 73% |

| SMILES | tested on | test | test system | setting | scale | measurement | result |
| --- | --- | --- | --- | --- | --- | --- | --- |
| CC[C@H](CO)N(CCN(N=O)[C@H](CC)CO)N=O | Salmonella typhimurium | mutagenicity, Ames plate incorporation | TA1535 | 150 µg/plate, without S9, methanol |  | revertant colonies per plate | 12.7 ± 2 |
| COc1cc(F)ccc1-c1ncnc(Nc2cccc(C[S@](C)(=N)=O)c2)n1 | Phosphatidylinositol 3-kinase C2 domain-containing subunit gamma (PIK3C2G, Homo sapiens, UniProt O75747) | kinase activity |  | 10 µM, with: 10 µM ATP |  | remaining activity | 101% |
| CC(C)C[C@H](NC(=O)C[C@H](O)[C@H](CC(C)C)NC(=O)[C@H](Cc1c[nH]cn1)NC(=O)CNC(=O)[C@@H](NC(=O)[C@H](C)NC(=O)[C@H](Cc1c[nH]c2ccccc12)NC(=O)[C@H](CCC(N)=O)NC(=O)[C@@H](Cc1ccccc1)NC(=O)COCCOCCNC(=O)CCC(C(=O)O)N1CCN(CC(=O)O)CCN(CC(=O)O)CCN(CC(=O)O)CC1)C(C)C)C(N)=O (some centres unmarked) [lutetium-177 labelled] |  |  | BALB/c nu/nu mice, muscle | intravenous, 100 pmol, 1 h, with: PA 300 µg |  | tissue uptake | 0.1 ± 0.06 %ID/g |
| Nc1nc(NC2CCCCC2)sc1C(=O)c1ccccc1 | CSNK1D | enzyme activity, inhibitor |  | 10 µM |  | remaining activity | 82% |
| CC1=C(/C=C/C(C)=C/C=C/C(C)=C/C(=O)O)C(C)(C)CCC1 | Cellular retinoic acid-binding protein 2 (CRABP2, Homo sapiens, UniProt P29373, R133K/Y135F) | tryptophan fluorescence quenching |  | concentration not given | reference: R132K:Y134F versus wild type, higher = weaker binding | binding affinity fold decrease | ~50 fold |
| O=C(O)c1ccc(Nc2ncc3c(n2)-c2ccc(Cl)cc2C(c2c(F)cccc2F)=NC3)cc1 | FGFR1(h) | kinase activity |  | 1 µM |  | remaining activity | 43% |
| C=CC(=O)N1CCC[C@@H](n2nc(-c3ccc(Oc4ccccc4)cc3)c3c(N)ncnc32)C1 | Ephrin type-A receptor 10 (EPHA10, Homo sapiens, UniProt Q5JZY3) |  |  | 10 µM |  | remaining activity | 289% |
| CC(=O)Nc1ccc(NC(=S)NC(=O)c2ccc(C(C)(C)C)cc2)cc1 | HBL-1 |  |  | 0.5 µM, 120 h |  | viability | 119% |
| C[C@@H](Oc1ccc(S(C)(=O)=O)cc1C(=O)N1C[C@@H]2C[C@]2(c2cc(C(F)(F)F)on2)C1)C(F)(F)F | Sodium- and chloride-dependent glycine transporter 1 (SLC6A9, Homo sapiens, UniProt P48067, L476T) | glycine uptake, inhibitor, [3H]glycine uptake |  | 0.005 µM, L422T mutant, log concentration 5, with: [3H]glycine | reference: no inhibitor | remaining activity | 10.2% |
| C[C@H]1[C@H](OC(=O)CCC(=O)O)O[C@@H]2O[C@@]3(C)CC[C@H]4[C@H](C)CC[C@@H]1[C@@]24OO3 | Non-structural polyprotein pORF1, helicase domain (Hepatitis E virus genotype 1, UniProt P33424) | ATPase activity |  | 4.8 µM | reference: solvent control | remaining activity | 76.5% |
| COc1cc(-c2cncc3c2CN(C)Cc2cc(N4CCNCC4)ccc2-3)cc(OC)c1OC | Phosphorylase b kinase gamma catalytic chain, liver/testis isoform (PHKG2, Homo sapiens, UniProt P15735) | kinase activity |  | 1 µM, human enzyme, with: ATP 10 µM | reference: DMSO control | remaining activity | 118% |
| CC(C(=O)Nc1cccc(/N=C/c2c(O)ccc3ccccc23)c1)c1ccccc1 (centres unmarked) | HBL-1 |  |  | 0.5 µM, 120 h |  | viability | 106% |
| OC[C@H]1OC(O)[C@H](O)[C@@H](O)[C@@H]1O (some centres unmarked) | Alpha-L-fucosidase AlfA (Lacticaseibacillus rhamnosus, UniProt A0A809N3R1) | inhibitor |  | 1000 µM, 5 min | reference: untreated | remaining activity | 95 ± 0.6% |
| O=c1nc(SCc2cc(F)cc(C(F)(F)F)c2)nc(SCc2ccc3nc(Cl)ccc3c2)[nH]1 | DNA topoisomerase 2-alpha (TOP2A, Homo sapiens, UniProt P11388) | DNA cleavage |  | 7.8 µM, replicate 2 |  | linear DNA | 0% |
| O.[Fe+2].c1ccc(CN(CCN(Cc2ccccn2)Cc2ccccn2)Cc2ccccn2)cc1 | Proteasome Macropain subunit MB1 (PSMB5, Homo sapiens, UniProt P28074) | 20S proteasome activity, inhibitor |  | 10 µM, incubation start, room temperature, aerobic without DTT |  | remaining activity | ~70% |
| CO[C@H]1CN(C)C(=O)c2cc(NC(=O)c3ccc(Oc4ccccc4)cc3)ccc2OC[C@@H](C)NC[C@@H]1C | IDE | enzyme activity, inhibitor, fluorogenic kinetic |  | with: Mca-RPPGFSAFK(Dnp)-OH substrate |  | EC50 | 2.9 µM |
| Cc1cc(Nc2cc(N3CCN(C)CC3)nc(Sc3ccc(NC(=O)C4CC4)cc3)n2)[nH]n1 | HIPK1 | kinase activity, KinaseProfiler |  | 0.03 µM, species human | reference: control | remaining activity | 94% |
| COc1cc(N2CCN(C)CC2)ccc1Nc1nc(N)n(C(=S)NCc2c(Cl)cccc2Cl)n1 | MAP3K1 | enzyme activity |  | 10 µM | reference: control | remaining activity | 0% |
| FC(F)c1nc2ccccc2n1-c1nc(N2CCOCC2)nc(N2CCOCC2)n1 | CSNK1D | enzyme activity |  | 10 µM |  | remaining activity | 76% |
